Experimental data from different studies.
Every numbered part comes from another study and shows a few of its results, in no order. Several values in a cell are separate wells, animals, samples, runs or records.
UniProt Q9HBH9, sequence (whole entry, looked up): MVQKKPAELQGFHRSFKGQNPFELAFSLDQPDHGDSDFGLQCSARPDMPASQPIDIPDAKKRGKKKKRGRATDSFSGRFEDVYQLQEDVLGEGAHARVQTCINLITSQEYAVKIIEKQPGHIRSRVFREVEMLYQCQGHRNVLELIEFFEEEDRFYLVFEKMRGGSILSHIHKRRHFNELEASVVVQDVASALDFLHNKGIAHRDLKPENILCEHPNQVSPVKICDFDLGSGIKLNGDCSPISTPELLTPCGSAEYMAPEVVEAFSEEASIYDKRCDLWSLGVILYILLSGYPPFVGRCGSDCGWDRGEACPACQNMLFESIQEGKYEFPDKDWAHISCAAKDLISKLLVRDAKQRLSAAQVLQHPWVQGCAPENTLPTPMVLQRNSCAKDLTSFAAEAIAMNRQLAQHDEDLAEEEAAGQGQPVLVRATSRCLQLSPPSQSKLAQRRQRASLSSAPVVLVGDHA
UniProt P42681, sequence (whole entry, looked up): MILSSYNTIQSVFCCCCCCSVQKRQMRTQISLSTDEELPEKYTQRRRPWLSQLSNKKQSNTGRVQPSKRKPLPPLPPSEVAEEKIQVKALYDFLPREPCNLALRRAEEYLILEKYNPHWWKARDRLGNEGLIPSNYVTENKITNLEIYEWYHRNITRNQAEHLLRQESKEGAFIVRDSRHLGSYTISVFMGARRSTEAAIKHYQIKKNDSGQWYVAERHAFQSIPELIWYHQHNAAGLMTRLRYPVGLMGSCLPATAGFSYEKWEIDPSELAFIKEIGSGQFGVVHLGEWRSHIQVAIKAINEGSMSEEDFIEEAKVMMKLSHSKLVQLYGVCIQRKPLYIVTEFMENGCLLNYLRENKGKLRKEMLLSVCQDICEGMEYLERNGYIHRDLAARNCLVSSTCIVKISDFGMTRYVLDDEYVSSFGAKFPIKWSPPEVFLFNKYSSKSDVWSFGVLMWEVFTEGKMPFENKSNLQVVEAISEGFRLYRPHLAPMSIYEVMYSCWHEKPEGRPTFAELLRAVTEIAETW

Sample 1
Species: human
Medium: microsomes or S9
Concentration: 2 µM
Time: 0.5 h
Quantity: remaining compound
COc1cc(=O)n(C)cc1C(=O)Nc1cc(C)on1: 88%
Clc1ccc(-c2nc3ncccn3c2Nc2ccccc2)cc1: 31.4%
COc1cc(=O)n(C)cc1C(=O)NC1CCCC1: > 99%
CC(C)Oc1nnc(SCc2nc3c(=O)n(C)c(=O)n(C)c3[nH]2)s1: 82.2%
Cc1ccc(Cl)cc1N1CCN(Cc2nc3c([nH]2)c(=O)[nH]c(=O)n3C)CC1: 53.9%
O=C(Nc1ccccc1-c1cn2ccccc2n1)c1ccc(Cn2ccnc2)cc1: 0.0174%
Cc1ccc(C(C)C)c(OCCNC(=O)CCCCNS(=O)(=O)c2ccccc2)c1: 0.236%
Cc1nn(CCC(=O)NC(C)(C)CN2CCCC(C)C2)c(C)c1C (centres unmarked): 51.9%
CCOC(=O)c1cc2n(n1)CC(C)(C(=O)NCCCOC)N(c1ccc(C)c(Cl)c1)C2=O (centres unmarked): 0.429%
CN1C(=O)c2cccc(-c3cc(Cl)cc(Cl)c3)c2C1(C)C: 73.4%
CCc1ccc(-c2nnc(N3CCN(C(C)c4nccs4)CC3)n2CCCOC)cc1 (centres unmarked): 24.4%
O=C(C1Cc2cc(Cl)ccc2O1)N1CCCC(O)(c2ccc(F)cc2)CC1 (centres unmarked): 47.3%
O=C(Nc1ccc(Nc2ccc(-n3cccn3)nn2)cc1)c1cccc(Cl)c1: 51.2%
CCc1c(C)nc2cc(-c3cc(OC)cc(OC)c3)nn2c1NCCN(CC)CC: 30.6%
CC(=O)c1ccc2[nH]c3c(C(C)=O)cc(Cl)cc3c2c1: > 99.9%
Cc1nn(-c2ncnc3[nH]cnc23)c2c1C(c1cccc(OC(C)C)c1)CC(=O)N2 (centres unmarked): 1.38%
Cc1noc2nc3c(c(C(=O)N4CCC5(CCCN(C)C5=O)C4)c12)CCC3 (centres unmarked): 70.3%
COc1cc(NC(=O)CCC(=O)OC(C)C)nc(OC)n1: 29.7%

Sample 2
Target: DNA polymerase theta, ATPase domain (POLQ, Homo sapiens, UniProt O75417)
UniProt O75417, sequence (whole entry, unmodified, looked up): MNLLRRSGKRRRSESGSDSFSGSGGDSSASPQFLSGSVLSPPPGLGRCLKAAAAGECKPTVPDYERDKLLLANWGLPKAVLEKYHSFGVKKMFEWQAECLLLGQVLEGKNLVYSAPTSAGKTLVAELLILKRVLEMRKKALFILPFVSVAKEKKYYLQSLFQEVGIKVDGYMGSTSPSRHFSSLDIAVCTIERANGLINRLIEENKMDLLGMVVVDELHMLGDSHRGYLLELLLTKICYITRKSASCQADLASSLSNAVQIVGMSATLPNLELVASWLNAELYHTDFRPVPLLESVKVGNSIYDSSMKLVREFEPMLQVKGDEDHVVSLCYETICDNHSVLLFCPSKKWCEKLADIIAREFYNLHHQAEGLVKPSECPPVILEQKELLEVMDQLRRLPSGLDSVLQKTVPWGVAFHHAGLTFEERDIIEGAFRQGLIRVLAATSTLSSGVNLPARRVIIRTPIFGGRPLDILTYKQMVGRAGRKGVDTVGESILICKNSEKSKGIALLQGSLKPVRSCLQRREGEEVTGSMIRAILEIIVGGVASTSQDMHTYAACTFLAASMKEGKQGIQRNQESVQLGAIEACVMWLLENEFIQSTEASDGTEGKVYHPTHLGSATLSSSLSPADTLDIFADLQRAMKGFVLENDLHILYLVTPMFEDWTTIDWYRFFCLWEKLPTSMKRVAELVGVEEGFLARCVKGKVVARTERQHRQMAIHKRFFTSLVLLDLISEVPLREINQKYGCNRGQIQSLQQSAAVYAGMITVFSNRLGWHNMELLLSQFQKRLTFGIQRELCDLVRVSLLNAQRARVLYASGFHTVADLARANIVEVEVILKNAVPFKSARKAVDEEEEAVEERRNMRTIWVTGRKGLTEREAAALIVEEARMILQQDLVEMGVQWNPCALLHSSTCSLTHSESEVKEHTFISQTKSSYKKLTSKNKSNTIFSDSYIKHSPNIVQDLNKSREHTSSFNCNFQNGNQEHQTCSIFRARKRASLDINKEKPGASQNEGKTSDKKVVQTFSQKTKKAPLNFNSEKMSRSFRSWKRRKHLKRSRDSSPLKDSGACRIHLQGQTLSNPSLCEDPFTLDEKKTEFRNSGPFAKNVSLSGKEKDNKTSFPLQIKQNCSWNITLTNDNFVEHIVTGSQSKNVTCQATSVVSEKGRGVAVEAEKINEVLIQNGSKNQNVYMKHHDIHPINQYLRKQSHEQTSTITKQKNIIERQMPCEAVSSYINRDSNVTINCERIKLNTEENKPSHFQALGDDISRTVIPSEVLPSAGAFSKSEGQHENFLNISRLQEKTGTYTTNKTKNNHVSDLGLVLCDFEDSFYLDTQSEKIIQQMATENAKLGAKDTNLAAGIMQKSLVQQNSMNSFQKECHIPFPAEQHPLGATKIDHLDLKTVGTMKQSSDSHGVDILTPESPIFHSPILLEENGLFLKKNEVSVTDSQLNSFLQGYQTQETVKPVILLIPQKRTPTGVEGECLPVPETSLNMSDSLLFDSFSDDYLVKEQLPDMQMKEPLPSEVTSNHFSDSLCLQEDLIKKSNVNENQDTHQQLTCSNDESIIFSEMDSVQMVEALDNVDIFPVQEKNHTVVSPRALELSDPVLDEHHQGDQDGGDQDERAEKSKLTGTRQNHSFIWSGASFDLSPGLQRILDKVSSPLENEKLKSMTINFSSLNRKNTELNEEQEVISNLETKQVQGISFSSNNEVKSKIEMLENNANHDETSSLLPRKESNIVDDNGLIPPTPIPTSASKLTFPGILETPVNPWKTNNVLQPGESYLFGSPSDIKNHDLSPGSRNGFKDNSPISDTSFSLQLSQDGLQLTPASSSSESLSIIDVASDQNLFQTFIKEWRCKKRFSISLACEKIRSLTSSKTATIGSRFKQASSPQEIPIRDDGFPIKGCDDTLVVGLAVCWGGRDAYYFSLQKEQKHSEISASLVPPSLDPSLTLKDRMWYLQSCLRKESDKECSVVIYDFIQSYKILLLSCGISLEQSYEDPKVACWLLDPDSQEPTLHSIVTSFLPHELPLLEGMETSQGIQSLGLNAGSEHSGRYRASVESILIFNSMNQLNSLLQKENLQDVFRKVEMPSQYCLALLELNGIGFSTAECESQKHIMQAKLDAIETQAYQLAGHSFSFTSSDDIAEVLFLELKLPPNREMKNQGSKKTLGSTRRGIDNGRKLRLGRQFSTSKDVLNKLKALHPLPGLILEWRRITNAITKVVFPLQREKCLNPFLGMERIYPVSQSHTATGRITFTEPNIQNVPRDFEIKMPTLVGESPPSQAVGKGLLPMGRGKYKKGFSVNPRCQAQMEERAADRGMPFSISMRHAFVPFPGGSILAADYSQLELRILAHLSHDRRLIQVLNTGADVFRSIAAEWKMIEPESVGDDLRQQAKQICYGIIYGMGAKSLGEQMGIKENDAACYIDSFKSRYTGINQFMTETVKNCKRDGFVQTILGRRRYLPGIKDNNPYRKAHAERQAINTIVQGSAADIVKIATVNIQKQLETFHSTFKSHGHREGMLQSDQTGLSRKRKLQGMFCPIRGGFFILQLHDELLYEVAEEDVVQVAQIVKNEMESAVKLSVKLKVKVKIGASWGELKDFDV
Observed: enzyme activity
Mode: inhibitor
Concentration: 77 µM
Reference: untreated
Quantity: remaining activity
O=c1cc(-c2ccc(O)cc2)oc2c([C@@H]3O[C@H](CO)[C@@H](O)[C@H](O)[C@H]3O)c(O)cc(O)c12: 94.4%
O=c1cc[nH]c(=O)[nH]1: 91.6%
CCC[C@H](Nc1nc(-c2ccc(NC(=O)NCC)c(OC)c2)ncc1C)c1cccnc1: 92%
Cc1cc(NC(=O)Nc2ccc3c(ccn3C)c2)sn1: 116%
CCCCOC(=O)c1ccc(O)cc1: 109%
C[C@H]1O[C@@H](n2cc(F)c(=O)[nH]c2=O)[C@H](O)[C@@H]1O: 99.9% and 104%
COC(=O)[C@@H](N)Cc1ccc(O)c(O)c1: 100%
Nc1n[nH]c(N)c1N=Nc1ccc(O)cc1: 103%
O=[N+]([O-])c1ccc(CNc2nc(NCc3cccc(C(F)(F)F)c3)nc3nc[nH]c23)cc1: 90.1%
Cn1cnc2c(F)c(Nc3ccc(Br)cc3F)c(C(=O)NOCCO)cc21: 98.7%
CC(C)C[C@H](NC(=O)[C@H](Cc1ccccc1)NC(=O)c1cnccn1)B(O)O: 97.2%
O=C(O)[C@@H](O)[C@H](O)[C@H](O)[C@@H](O)C(=O)O: 93.8%
O=C(CCCN1CCC(O)(c2cccc(C(F)(F)F)c2)CC1)c1ccc(F)cc1: 103%
C=C[C@](C)(O)CC[C@@H]1[C@@]2(C)CCCC(C)(C)[C@@H]2CC[C@@]1(C)O: 94.8%
CCCC(C(=O)OCCN(CC)CC)(c1ccccc1)c1ccccc1: 101%
CC(C)NC(=N)NC(=N)Nc1ccc(Cl)cc1: 105%
CC[C@H]1OC(=O)[C@H](C)[C@@H](O[C@H]2C[C@@](C)(OC)[C@@H](O)[C@H](C)O2)[C@H](C)[C@@H](O[C@@H]2O[C@H](C)C[C@H](N(C)C)[C@H]2O)[C@](C)(OC)C[C@@H](C)C(=O)[C@H](C)[C@@H](O)[C@]1(C)O: 103%
C#C[C@]1(O)CC[C@H]2[C@@H]3CCC4=CCCC[C@@H]4[C@H]3CC[C@@]21C: 106%
C[C@@H]1CN(CC(=O)Nc2ccc3c(c2)Cc2cccc(-c4cc(=O)cc(N5CCOCC5)o4)c2S3)C[C@H](C)O1: 92.5%

Sample 3
Target: Fibroblast growth factor receptor 2 (FGFR2, Homo sapiens, UniProt P21802)
UniProt P21802, sequence (whole entry, looked up): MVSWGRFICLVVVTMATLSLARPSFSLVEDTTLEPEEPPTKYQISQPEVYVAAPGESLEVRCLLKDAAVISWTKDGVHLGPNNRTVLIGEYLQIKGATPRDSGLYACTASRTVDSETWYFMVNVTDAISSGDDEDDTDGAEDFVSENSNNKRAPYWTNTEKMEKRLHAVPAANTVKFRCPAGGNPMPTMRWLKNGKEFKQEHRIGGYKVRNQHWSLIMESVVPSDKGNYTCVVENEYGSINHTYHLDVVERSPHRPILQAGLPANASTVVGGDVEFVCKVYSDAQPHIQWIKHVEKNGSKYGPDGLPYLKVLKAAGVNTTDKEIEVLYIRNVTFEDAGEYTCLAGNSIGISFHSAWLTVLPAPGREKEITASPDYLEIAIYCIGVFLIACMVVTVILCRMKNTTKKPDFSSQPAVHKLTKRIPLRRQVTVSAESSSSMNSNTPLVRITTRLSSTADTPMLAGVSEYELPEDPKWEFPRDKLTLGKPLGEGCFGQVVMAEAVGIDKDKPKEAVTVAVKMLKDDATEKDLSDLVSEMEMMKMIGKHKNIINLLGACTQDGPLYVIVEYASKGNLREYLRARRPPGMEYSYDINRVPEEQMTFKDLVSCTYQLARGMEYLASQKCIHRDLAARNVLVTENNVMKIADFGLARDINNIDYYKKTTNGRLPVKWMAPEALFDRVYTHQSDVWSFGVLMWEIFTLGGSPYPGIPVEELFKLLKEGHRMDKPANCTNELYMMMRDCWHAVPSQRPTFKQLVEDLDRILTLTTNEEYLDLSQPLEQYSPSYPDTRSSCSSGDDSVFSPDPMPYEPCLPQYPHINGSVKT
Observed: enzyme activity
Mode: inhibitor
Concentration: 0.5 µM
Reference: control
Quantity: remaining activity
O=C(c1ccccc1)c1ccc(N2CCOCC2)cc1O: 99.1%
CCN(CC)CCCCN1c2ccccc2Oc2ccc(Cl)cc21: 95.7%
FC(F)(F)c1ccc(/C=C/c2nc(COc3ccc(CCCCn4ccnn4)cc3)co2)cc1: 96.7%
CCCCc1c(-c2ccc(O)cc2)[nH]c2nccnc12: 94.5%
c1cc(-c2cnn3cc(-c4ccc(OCCN5CCCCC5)cc4)cnc23)ccn1: 80.4%
CNc1cc2c(Nc3cccc(Br)c3)ncnc2cn1: 96.3%
NC(=O)c1cccc(-c2cc(Nc3ccc(OC(F)(F)F)cc3)ncn2)c1: 95.9%
CC(C)N(CCC(=O)c1ccc2ccccc2c1)Cc1ccccc1: 107%
O=C1NC(=O)/C(=C/c2ccc3c(c2)OC(F)(F)O3)S1: 97.6%
N#C/C(=C(/N)SC1C=CC=CC1)c1cccc(C(O)c2ccncc2)c1 (centres unmarked): 99.7%
O=C(O)/C=C/c1cc(Br)c(Br)c(Br)c1Br: 99.5%
Clc1ccc(Nc2nnc(Cc3ccncc3)c3ccccc23)cc1: 96%
O=Nc1c(-c2c(O)[nH]c3ccccc23)[nH]c2ccccc12: 92.1%
O=C1c2ccccc2-c2nc3nnnn3nc21: 59.4%
NC(=O)c1ccc(-c2nc(-c3ccc4c(c3)OCCO4)c(-c3ccccn3)[nH]2)cc1: 99.4%
O=c1c(-c2ccc(F)cc2)c(-c2ccncc2)[nH]n1-c1ccc(Cl)cc1: 94%
C[C@@H](N)[C@H]1CC[C@H](C(=O)Nc2ccncc2)CC1: 95.7%
CC(C)n1cnc2c(Nc3cccc(Cl)c3)nc(NCCO)nc21: 94.5%
Nc1nc(Nc2ccc(S(N)(=O)=O)cc2)nn1C(=S)Nc1c(F)cccc1F: 7.43%
CC(C)(C)c1nc2c3cc[nH]c(=O)c3c3cc(F)ccc3c2[nH]1: 99.1%
N#CC(c1ccnc(NCCc2cccnc2)n1)c1nc2ccccc2s1 (centres unmarked): 102%

Sample 4
Structure (SMILES): CC(=O)Nc1c(C(C)=O)c(=O)n(C)c2nc(-c3ccc(Cl)cc3Cl)c(-c3ccc(Cl)cc3)cc12
Concentration: 1 µM
Quantity: remaining binding
BMPR2 (Homo sapiens, UniProt Q13873); cell-free assay, competition with immobilised ligand: 100%
LIM domain kinase 2 (LIMK2, Homo sapiens, UniProt P53671); cell-free assay, competition with immobilised ligand: 100%
TXK (Homo sapiens, UniProt P42681); binding, competition with immobilised ligand: 100%
CSNK1A1L (Homo sapiens, UniProt Q8N752); cell-free assay, competition with immobilised ligand: 100%
AAK1 (Homo sapiens, UniProt Q2M2I8); binding: 100%
PRKD3 (Homo sapiens, UniProt O94806); cell-free assay, competition with immobilised ligand: 100%
PLK1 (Homo sapiens, UniProt P53350); cell-free assay, competition with immobilised ligand: 100%
SRPK1 (Homo sapiens, UniProt Q96SB4); cell-free assay, competition with immobilised ligand: 100%
STK10 (Homo sapiens, UniProt O94804); cell-free assay, competition with immobilised ligand: 100%
SRC (Homo sapiens, UniProt P12931); cell-free assay, competition with immobilised ligand: 100%
DMPK (Homo sapiens, UniProt Q09013); cell-free assay, competition with immobilised ligand: 100%
SBK1 (Homo sapiens, UniProt Q52WX2); cell-free assay, competition with immobilised ligand: 80%
MAP3K1 (Homo sapiens, UniProt Q13233); cell-free assay, competition with immobilised ligand: 100%
MKNK2 (Homo sapiens, UniProt Q9HBH9); cell-free assay, competition with immobilised ligand: 100%
BMP2K (Homo sapiens, UniProt Q9NSY1); cell-free assay, competition with immobilised ligand: 100%
ERN1 (Homo sapiens, UniProt O75460); cell-free assay, competition with immobilised ligand: 100%
AKT2 (Homo sapiens, UniProt P31751); cell-free assay, competition with immobilised ligand: 100%
MYLK4 (Homo sapiens, UniProt Q86YV6); cell-free assay, competition with immobilised ligand: 100%
GSK3B (Homo sapiens, UniProt P49841); cell-free assay, competition with immobilised ligand: 100%
CDK13 (Homo sapiens, UniProt Q14004); cell-free assay, competition with immobilised ligand: 100%
PIK3CA (Homo sapiens, UniProt P42336, E542K); cell-free assay, competition with immobilised ligand: 94%
Ribosomal protein S6 kinase alpha-6, C-terminal kinase domain (RPS6KA6, Homo sapiens, UniProt Q9UK32); cell-free assay, competition with immobilised ligand: 100%
EPHA8 (Homo sapiens, UniProt P29322); cell-free assay, competition with immobilised ligand: 100%
Receptor-type tyrosine-protein kinase FLT3, autoinhibited (FLT3, Homo sapiens, UniProt P36888); cell-free assay, competition with immobilised ligand: 100%
NEK3 (Homo sapiens, UniProt P51956); cell-free assay, competition with immobilised ligand: 100%

Repeated from above (sample 2):
CCC[C@H](Nc1nc(-c2ccc(NC(=O)NCC)c(OC)c2)ncc1C)c1cccnc1: 92%
Cc1cc(NC(=O)Nc2ccc3c(ccn3C)c2)sn1: 116%
CCCCOC(=O)c1ccc(O)cc1: 109%
C[C@H]1O[C@@H](n2cc(F)c(=O)[nH]c2=O)[C@H](O)[C@@H]1O: 99.9% and 104%
COC(=O)[C@@H](N)Cc1ccc(O)c(O)c1: 100%
Nc1n[nH]c(N)c1N=Nc1ccc(O)cc1: 103%
O=[N+]([O-])c1ccc(CNc2nc(NCc3cccc(C(F)(F)F)c3)nc3nc[nH]c23)cc1: 90.1%
Cn1cnc2c(F)c(Nc3ccc(Br)cc3F)c(C(=O)NOCCO)cc21: 98.7%
CC(C)C[C@H](NC(=O)[C@H](Cc1ccccc1)NC(=O)c1cnccn1)B(O)O: 97.2%
